# Assay results pooled from the literature.
# Protocols differ between the studies behind these lines. Values joined by “and” are separate records of one study, mostly repeats; a detail may differ. ± marks the error that the study gave.
Compound,assay,test system,conditions,how to read,measurement,result
C=CCn1c(=O)c2cnc(Nc3ccc(N4CCN(C)CC4)cc3)nc2n1-c1ccc2c(n1)[C@@](O)(CC)CC2,,"COLO 205 xenograft, BALB/c nude mice","oral, 60 mg/kg once daily x 22, day 21",,tumour volume difference,830 ± 40.3 mm3
c1ccc(-c2n[nH]cc2-c2ccnc3ccccc23)nc1,"kinase binding, competitor, MIB/MS competition, item: CAK1",Candida albicans cell lysate,10 µM,relative to: DMSO,log2 fold change,0.749
CC(C)[C@H](C(=O)Nc1ccc(C(=O)NO)cc1)c1ccccc1,volumetric MRI,"human, right internal auditory canal","dose not given, 51 days",,tumour volume,18.6 cm³
COC(=O)c1c(C)[nH]c(C)c1C(=O)c1ccccc1Cc1ccccc1,high-content microscopy,"DRG neurons, rat","dose not given, unit not given, added: DAMGO 0.01",relative to: no DAMGO,serotonin-induced response,0.852 and 1.06 and 0.802 and 1.01
OC(CCN1CCCCC1)(c1ccccc1)C1CC2C=CC1C2 (centres unmarked),resting-state EEG,healthy elderly humans,"oral, 2 mg, eyes closed, LS mean",relative to: baseline,"change, EEG Alpha power, in O1-Pz",-6.9%
COCCOc1cnc2ccn([C@H](C)c3nnc4c(F)cc(-c5cnn(C)c5)cn34)c(=O)c2c1,,"patients with advanced solid tumours, partial responders","dose not given, RECIST response, median",,time to partial response,119 days
O=C(NOC[C@H](O)CO)c1ccc(F)c(F)c1Nc1ccc(I)cc1F,,mouse HCT-116 KRAS G13D xenograft,"oral, once daily",,ED50,0.8 mg/kg
[Cl-].[Cl-].[Pt+2].[Ru+2].c1ccc(-c2nc3cc4ccccc4cc3nc2-c2ccccn2)nc1.c1cnc2c(c1)ccc1cccnc12.c1cnc2c(c1)ccc1cccnc12,"chloride substitution, UV-vis kinetics",aqueous buffer,"concentration not given, pH 7.2, first substitution step, added: L-methionine",,negative activation entropy,171 ± 5 J/(mol·K)
COc1ccccc1[C@H](Cn1c(=O)n(C(C)(C)C(=O)O)c(=O)c2c(C)c(-c3ncco3)sc21)OC1CCOCC1,,human,"50 mg, post-treatment",,blood HDL level,43.9 ± 10.5 mg/dL
N#Cc1ccn2c(-c3ccncc3)c(-c3ccc(F)cc3)nc2c1,"kinase binding, competitor, MIB/MS competition, item: PBS2",Candida albicans cell lysate,10 µM,relative to: DMSO,log2 fold change,-0.334
OC[C@H]1O[C@@H](c2ccc(F)c(Cc3cc4ccccc4s3)c2)[C@H](O)[C@@H](O)[C@@H]1O,continuous glucose monitoring,Japanese type 1 diabetes patients,"25 mg/day, day 1",relative to: baseline,time glucose at most 70 mg/dL,10.6 ± 9.33 % change
CC(C)C[C@@H](NC(=O)[C@H](C)NC(=O)CNC(=O)[C@@H](NC=O)C(C)C)C(=O)N[C@@H](C)C(=O)N[C@@H](C(=O)N[C@H](C(=O)N[C@@H](C(=O)N[C@@H](Cc1c[nH]c2ccccc12)C(=O)N[C@H](CC(C)C)C(=O)N[C@@H](Cc1cccc2[nH]ccc12)C(=O)N[C@H](CC(C)C)C(=O)N[C@@H](Cc1c[nH]c2ccccc12)C(=O)N[C@H](CC(C)C)C(=O)N[C@@H](Cc1c[nH]c2ccccc12)C(=O)NCCO)C(C)C)C(C)C)C(C)C,"H+/Na+ transport, pyranine pH-gradient",EYPC/cholesterol LUVs 2:1,,,EC50,38.8 ± 11.3 nM
COc1cccc(CC2NC(=O)CN(Cc3ccccc3)C2=O)c1I (centres unmarked),,rat spinal nerve ligation,"intraperitoneal, 3 mg/kg, added: gabapentin 30 mg/kg i.p.",,evoked audible vocalizations,decreased
Cc1noc(C)c1-c1cc(C(O)(c2ccccn2)c2ccccn2)c2nc(C3CC3)[nH]c2c1,item: CCR2 expression,"human, peripheral blood","2 mg, day 8, 1599 study",,maximum inhibition,42.2%
CS(=O)(=O)CCNCc1ccc(-c2ccc3ncnc(Nc4ccc(OCc5cccc(F)c5)c(Cl)c4)c3c2)o1,tumour growth,"A498 xenograft, mouse","oral, daily, 21 days",,ED50,125 mg/kg
CN(C(=O)n1cnc(-c2ccc[n+]([O-])c2)c1)C1CCCCC1,item: LEA,"human, plasma","5 mg once daily, day 10",,AUC(0-tau),143 ng·h/mL
N#Cc1ccc2c(c1)[C@H]1CCCN(C(=O)c3ccc4[nH]cnc4c3)[C@H]1C2,,human clinical trial,"oral, 240 mg once daily, 28 d",relative to: placebo,systolic blood pressure change,-4.1 mmHg
Cc1n[nH]c2ccc(-c3cc(OC[C@@H](N)Cc4ccccc4)cnc3-c3ccoc3)cc12,"kinase binding, competitor, MIB/MS competition, item: HST7",Candida albicans cell lysate,100 nM,relative to: DMSO,log2 fold change,0.106
COc1cc(Nc2ncc3c(n2)-c2ccc(Cl)cc2C(c2c(F)cccc2OC)=NC3)ccc1C(=O)O,,"mouse, NB-SD neuroblastoma xenograft",5.2 mg/kg,direction not given,median response score,2
CCCCCCCCCCCCCCCC(=O)NCCOC(=O)C[C@@H](CN)CC(C)C,mechanical withdrawal threshold,"mouse, carrageenan inflammatory pain",oral,,ED50,4.43 mg/kg
C[C@@H]1CCC[C@H](n2cnc(-c3cc(Cl)ccc3-n3cc(Cl)nn3)cc2=O)c2cc(ccn2)-c2c(cnn2C(F)F)NC1=O,,pooled normal human plasma,"IC2× aPTT, STA-PTT reagent",,concentration for aPTT prolongation,1400 nM
O[C@H]1CCCN[C@@H]1CCCn1cnc2c(Cl)c(Cl)ccc21,"ELISA, item: Pro-C3","healthy human volunteers, serum","intraduodenal, 50 mg twice daily, day 14, multiple ascending dose",,AUC(0-tau),158 ng·h/mL
CN(C)C(=O)c1cc2cnc(Nc3ccc(N4CCNCC4)cn3)nc2n1C1CCCC1,"RNA-seq GSEA, item: HALLMARK_HYPOXIA",MB002 tumour,"concentration not given, in vivo","relative to: vehicle, direction not given",GSEA enrichment score,0.267
O=C(O)CNC(=O)Cc1ccccc1,,"ventricular cardiomyocytes, C57BL/6 mouse","dose not given, 0.544 s",,sarcomere length,1.62 µm
COc1nnc2ccc(N3CCC(c4ccc(OCCN5CCN(C)C(=O)[C@H]5C)cc4)CC3)nn12,,patients,15 mg twice daily,,time HEXIM1 above threshold,8.38 h
NC/C(=C\F)COc1cccc(Cn2c(=S)[nH]c(=O)c3[nH]cnc32)c1,,"mouse, unilateral ureteral obstruction, right kidney (control)",dose not given,,fibrosis area,1.06% and 1.05% and 0.8% and 0.99% and 1.22% and 1.92%
O=C1N(Cc2ccccc2Cl)c2ccccc2C12NN=C(c1ccccc1)S2 (centres unmarked),,"SK-BR-3 xenograft, mouse","intraperitoneal, 925.5 mg/kg total, subcutaneous xenograft",relative to: vehicle,T/C,> 100%
O=C1CCc2ccc(OCCCCN3CCN(c4cccc(Cl)c4Cl)CC3)cc2N1,,patients CYP2D6 UM,6 months,,stopping or switching,45%
CC(C)NCC(O)c1ccc(O)c(O)c1 (centres unmarked),,"ventricular cardiomyocytes, C57BL/6 mouse","dose not given, 0.028 s",,sarcomere length,1.72 µm
CN(C)C(=O)Nc1cccc(-c2ccc(N(C)C)cc2)c1,,mouse high-fat diet,dose not given,relative to: body weight,iWAT weight,4.12% and 3.78% and 5.16% and 4.35% and 3.36% and 4.73%
Cc1cc([C@H]2C[C@H]3[C@@H](CF)SC(N)=N[C@@]3(c3ccc(F)cc3F)CO2)on1,item: Aβx-40,"wild-type mouse, brain","subcutaneous, 100 mg/kg, 7 h",,brain Aβ40 level,1.83 ng/g
CC(C)[C@H](NC(=O)[C@H](Cc1ccc(O)cc1)NC(=O)[C@H](Cc1ccc(O)cc1)NC(=O)[C@@H]1CCCN1C(=O)[C@H](CCC(=O)O)NC(=O)[C@H](CCC(=O)O)NC(=O)[C@H](Cc1c[nH]c2ccccc12)NC(=O)[C@@H]1CCCN1C(=O)[C@@H](NC(=O)[C@H](CCC(N)=O)NC(=O)c1ccc2c(c1)C(=O)OC21c2ccc(O)cc2Oc2cc(O)ccc21)C(C)C)C(=O)N[C@H](C(=O)N[C@@H](CCCCN)C(=O)N[C@@H](CCCCN)C(=O)N[C@@H](CO)C(=O)N[C@@H](CO)C(=O)NCC(=O)NCC(N)=O)C(C)C,nerve penetration depth,"human head and neck surgery, nerves","500 mg, very much improved",relative to: white light,share of responses,0%
NCC(=O)Nc1cncc(-c2nn3c(=O)cc(N4CCNCC4)nc3s2)c1,"ADP-induced platelet aggregation, light transmission aggregometry","human, stable CAD on aspirin, ex vivo platelets","subcutaneous, 0.05 mg/kg, 5 min post-dose, median value, added: ADP 20 µM",,inhibition,23.8%
NC(=O)c1cnc2[nH]ccc2c1N[C@@H]1[C@@H]2CC3C[C@H]1C[C@@](O)(C3)C2,"flow cytometry, item: CD8+ central memory T cells","Japanese healthy subjects, peripheral blood","oral, 30 mg twice daily, day 4",,change from baseline,0.42%
CCO[C@H]1CCN(Cc2c(OC)cc(C)c3[nH]ccc23)[C@H](c2ccc(C(=O)O)cc2)C1,,"PNH patients, blood","oral, 50 mg then 200 mg, week 8, mean percent change",relative to: baseline,C3d-positive type III RBCs,-94.6%
Cc1ccc(C(=O)OCc2ccc([C@@H](CN)C(=O)Nc3ccc4cnccc4c3)cc2)c(C)c1,tonometry,"Macaca cyclopis, ocular normotensive","ocular, 0.02%, 48 h",,IOP,18.4 mmHg
C[C@H]1C[C@H]2CSC(N)=N[C@@]2(c2nc(NC(=O)c3ccc(OC(F)F)cn3)cs2)CO1,item: Aβ1-40,"healthy adults, plasma","275 mg once daily, day 7",relative to: placebo,percent change from baseline,-87.1%
COc1ccc(-c2cncc(N[C@@H](C)c3cccc(NC(=O)c4cncc(C)c4)c3)n2)cc1OC,item: rno-miR-93-5p,"rat SU5416/hypoxia model, lung",dose not given,relative to: SU5416/hypoxia vehicle,fold change,1.49
C[C@H](Oc1ccc(Br)cc1-c1ccon1)C(=O)O,relative refractory period,"human, tibialis anterior muscle","400 mg, SAD",,difference from placebo,-0.056 ms
Cn1nnc2c(C(N)=O)ncn2c1=O,,mouse subcutaneous GBM PDX sample E,"subcutaneous, dose not given",,T/C ratio,-7%
C[C@H]1O[C@@H](O[C@H]2CC[C@@]3(C)[C@@H](CC[C@]4(C)[C@@H]3C=C[C@]35OC[C@@]6(CCC(C)(C)C[C@H]63)[C@@H](O)C[C@]54C)[C@]2(C)CO)[C@H](O)[C@@H](O[C@@H]2O[C@H](CO)[C@@H](O)[C@H](O)[C@H]2O)[C@H]1O,,"chronic-plus-binge ethanol mice, plasma","oral, 10 mg/kg/day for 7 d, 168 h",,ALT activity,22 U/L and 29.7 U/L and 30.2 U/L and 25.4 U/L and 27.8 U/L
C[C@@H](O)CCOC(=O)C[C@@H](C)O,,human,"oral drink, dose not given, 180 min post dose, median, all participants",,plasma insulin,481 pg/mL
CC(=O)Oc1cc2c(s1)CCN(C(C(=O)C1CC1)c1ccccc1F)C2 (centres unmarked),"platelet aggregation, light transmittance aggregometry","human, platelet-rich plasma","30 min, IPA above 80 %, added: TRAP 5 µM",relative to: patients,patients with IPA above threshold,0%
COc1cc2cc(-c3ccc(CC(=O)Nc4cc(C(C)(C)C(F)(F)F)no4)cn3)cnc2cc1OC,RECIST v1.1,RET-altered advanced solid tumour patients,"oral, 100 mg once daily, phase I",,progressive disease as best response,0%
CN(C)C(=O)Oc1cccc([N+](C)(C)C)c1,neuromuscular block reversal,rat,"dose not given, 10 (unit not given), added: cisatracurium",relative to: T1 twitch,train-of-four ratio,77.3
CSCCNc1nc(SCCC(F)(F)F)nc2c1ncn2[C@@H]1O[C@H](COP(=O)(O)OP(=O)(O)C(Cl)(Cl)P(=O)(O)O)[C@@H](O)[C@H]1O,"platelet aggregation, light transmission aggregometry","human patients, platelet-rich plasma","dose not given, 2 h, added: TRAP 15 µM",,patients with IPA above 90%,0%
C[C@@H](NC(=O)N1C(=O)[C@H](Cc2ccnc(N)c2)[C@H]1C(=O)O)C1CCCCC1,,"human, plasma","continuous intravenous infusion, 1.5 mg/kg/h, days 1 to 6 of 5-day infusion, median",,time to maximum prothrombin time,28 h

# For quick reference, copied from above:
Compound,assay,test system,conditions,how to read,measurement,result
CS(=O)(=O)CCNCc1ccc(-c2ccc3ncnc(Nc4ccc(OCc5cccc(F)c5)c(Cl)c4)c3c2)o1,tumour growth,"A498 xenograft, mouse","oral, daily, 21 days",,ED50,125 mg/kg
CN(C(=O)n1cnc(-c2ccc[n+]([O-])c2)c1)C1CCCCC1,item: LEA,"human, plasma","5 mg once daily, day 10",,AUC(0-tau),143 ng·h/mL
N#Cc1ccc2c(c1)[C@H]1CCCN(C(=O)c3ccc4[nH]cnc4c3)[C@H]1C2,,human clinical trial,"oral, 240 mg once daily, 28 d",relative to: placebo,systolic blood pressure change,-4.1 mmHg
Cc1n[nH]c2ccc(-c3cc(OC[C@@H](N)Cc4ccccc4)cnc3-c3ccoc3)cc12,"kinase binding, competitor, MIB/MS competition, item: HST7",Candida albicans cell lysate,100 nM,relative to: DMSO,log2 fold change,0.106
COc1cc(Nc2ncc3c(n2)-c2ccc(Cl)cc2C(c2c(F)cccc2OC)=NC3)ccc1C(=O)O,,"mouse, NB-SD neuroblastoma xenograft",5.2 mg/kg,direction not given,median response score,2
CCCCCCCCCCCCCCCC(=O)NCCOC(=O)C[C@@H](CN)CC(C)C,mechanical withdrawal threshold,"mouse, carrageenan inflammatory pain",oral,,ED50,4.43 mg/kg
C[C@@H]1CCC[C@H](n2cnc(-c3cc(Cl)ccc3-n3cc(Cl)nn3)cc2=O)c2cc(ccn2)-c2c(cnn2C(F)F)NC1=O,,pooled normal human plasma,"IC2× aPTT, STA-PTT reagent",,concentration for aPTT prolongation,1400 nM
